Assay results of several laboratories.
Lines come from different studies, so protocols differ.
Target: Gag-Pol polyprotein, reverse transcriptase (gag-pol, Human immunodeficiency virus type 1 group M subtype B, UniProt P04585)
Observed: enzyme activity
Action: inhibitor

Structure (SMILES)	method	IC50
CCc1c(CC2CCCCC2)nc(SCC(=O)c2ccccc2)[nH]c1=O	–	280 nM
Cc1cnc2c(c1)NC(=O)c1cccnc1N2C1CC1	ELISA	1.07 nM
Cc1cc(C#N)cc(C)c1Oc1cc(Nc2ccc(C#N)cn2)nc2ccncc12	ELISA	218 nM
COC(=O)c1ccccc1NC(=O)Cc1cn(OC)c2ccccc12	–	> 30000 nM
O=C1Nc2c(CO)ccnc2N(C2CC2)c2ncccc21	ELISA	26500 nM
O=C1Nc2cccnc2N(C2CC2)c2ncccc21	ELISA	0.86 nM
Cc1cc(/C=C/C#N)cc(C)c1Oc1cc(Nc2ccc(C#N)cn2)nc2ccncc12	ELISA	175 nM
Cc1c(Br)cnc2c1NC(=O)c1cccnc1N2C1CC1	ELISA	2780 nM

Repeated from above:
Structure (SMILES)	method	IC50
Cc1c(Br)cnc2c1NC(=O)c1cccnc1N2C1CC1	ELISA	2780 nM
